# Published values gathered from unrelated publications.
# Parts stem from different laboratories: compare values within a part only. Substitutions count along the parent as printed.

# Set 1 — target: CCNA2, cyclin fold, Cln2 fusion (human); technique: yeast growth competition, sequencing; sample: yeast; setting: strong parent motif; relative to: not given; direction: higher = stronger binding
# Parent: ORC1 docking peptide (human); PRARKRLELGNLG; partner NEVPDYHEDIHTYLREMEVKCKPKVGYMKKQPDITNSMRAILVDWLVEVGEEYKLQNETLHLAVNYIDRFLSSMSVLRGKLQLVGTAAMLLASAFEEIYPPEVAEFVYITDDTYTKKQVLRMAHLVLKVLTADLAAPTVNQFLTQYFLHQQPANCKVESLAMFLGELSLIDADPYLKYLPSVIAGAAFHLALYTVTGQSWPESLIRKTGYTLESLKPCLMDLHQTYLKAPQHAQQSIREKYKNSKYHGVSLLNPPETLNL
Variant,normalised enrichment score
A3T,1.27
R2I,4.32
N11I,3.6
A3W,1.18
R4S,1.11
P1S,4.19

# Set 2 — technique: competition protein-binding microarray; form: double-stranded DNA, one strand shown; sample: in vitro; concentration: 2 µM; added: Cbf1 competitor, 0.05 µM; direction: higher = stronger binding; all sequences stand within: … GTCTTGATTCGCTTGACGCTGCTG
# Target: Phosphate system positive regulatory protein PHO4, full length, GST-tagged (PHO4, Saccharomyces cerevisiae, UniProt P07270, residues 1-312)
# Setting: whole 60-bp probe, lowest competitor level
# Construct (chain): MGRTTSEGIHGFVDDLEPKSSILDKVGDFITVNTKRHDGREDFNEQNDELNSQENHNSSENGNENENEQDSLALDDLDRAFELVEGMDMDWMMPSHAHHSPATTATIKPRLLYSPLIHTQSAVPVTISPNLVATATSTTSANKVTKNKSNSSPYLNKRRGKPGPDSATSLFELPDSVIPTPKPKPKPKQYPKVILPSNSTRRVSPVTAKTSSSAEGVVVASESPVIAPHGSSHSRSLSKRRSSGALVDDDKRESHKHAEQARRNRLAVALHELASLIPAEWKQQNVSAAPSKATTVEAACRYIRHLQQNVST
Strand,fluorescence intensity
AAGAAACATACCCATCACGTGACGGCAAGAATGTTA,14500 a.u.
TTGGTGAGCATTACCTACGTGTTGGGCACTACAACA,5210 a.u.
AAAAAAAAAACGAGTCACGTGCAAACAGTACCCCTT,16200 a.u.
TTTGTGGTTTTCAGCCGCGTGTATACCTTCAGCTTG,7480 a.u.
AAACAAATATTAGCTCGCGTGGCCGAATGGCAACGC,8270 a.u.
AAATTACTAAGTTTGCACGTGTTTTACCCCGTATGA,17800 a.u.
TGTCTTATCTGCTCCTTTGTGATATTACGGTCTCAA,3770 a.u.
CGCGATTATGGGCCGCTCGTGACGGTAAAGGAAGCA,6100 a.u.
TGCGCAACAACTTGTCACATCACTTTATGTCTAGAA,3710 a.u.

# Set 3 — technique: DNA-protein interaction ELISA; form: double-stranded DNA, one strand shown; sample: in vitro, bacterial lysate; concentration: not given; setting: whole dsDNA probe, crude lysate protein; relative to: highest signal in screen; direction: higher = stronger binding
# Target: Probable WRKY transcription factor 33, C-terminal DNA-binding domain (WRKY33, Arabidopsis thaliana, UniProt Q8S8P5, residues 346-449)
# Residues (chain): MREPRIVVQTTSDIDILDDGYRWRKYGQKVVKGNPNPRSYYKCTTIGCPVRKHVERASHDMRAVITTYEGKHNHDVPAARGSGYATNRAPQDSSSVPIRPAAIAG
Strand,relative absorbance
AAAAAATAAACGTGTTCATACTTAGTAAAA,29.6 % of maximum
AAAAAACACGCCATTGACACTGGTAAAAAA,63.2 % of maximum
AAAAAAAAGGACATTTTTTCTTTTTGAAAA,29.4 % of maximum
AAAAAATGTATTCGTGTCCACTCCATAAAA,36.5 % of maximum
AAAAAACCTCTTGTCTCTGCTCTCCCAAAA,31.6 % of maximum
AAAAAAGTACGGATGCCCGCGCGTATAAAA,58.1 % of maximum
AAAAAATCAACCATTATGGTATTACTAAAA,85.7 % of maximum

# Other studies, line by line
Substance,target,assay,test system,setting,scale,measurement,result
"PhoQ, residues 284 288 289 292 302 303 ALSMDL","PhoP, residues 12 14 15 18 19 GQAIL (Escherichia coli, UniProt P23836)","Sort-seq, refers to: YFP reporter",E. coli,"PhoQ-PhoP variant library, added: 10 µM Mg2+","relative to: high Mg2+ state, higher = stronger signaling",fold induction,13

# Some of these lines once more (set 2):
Strand,fluorescence intensity
CGCGATTATGGGCCGCTCGTGACGGTAAAGGAAGCA,6100 a.u.
TGCGCAACAACTTGTCACATCACTTTATGTCTAGAA,3710 a.u.
